{"data": "Measured values collected from several papers", "note": "Numbers after ± are the reported error."}
{"SMILES": "CN(C)C(CNC(=O)Nc1cc(C(F)(F)F)ccc1N1CCOCC1)c1ccncc1 (stereo not shown)", "test system": "mouse, serum", "conditions": "intraperitoneal, 180 mg/kg single dose", "endpoint": "serum potassium", "result": "6.2 mmol/L"}
{"SMILES": "CC(C)C[C@H](NC(=O)[C@H](CCCCN)NC(=O)[C@H](CCC(=O)O)NC(=O)[C@H](C)NC(=O)[C@@H](NC(=O)[C@H](CCCCN)NC(=O)[C@H](CC(=O)O)NC(=O)[C@H](Cc1ccc(O)cc1)NC(=O)[C@H](Cc1ccccc1)NC(=O)[C@H](C)NC(=O)[C@H](CCCCN)NC(=O)[C@H](CC(C)C)NC(=O)[C@H](Cc1c[nH]c2ccccc12)NC(=O)[C@@H](N)CC(=O)O)C(C)C)C(=O)N[C@@H](CCCCN)C(=O)N[C@@H](CCC(=O)O)C(=O)N[C@@H](C)C(=O)N[C@@H](Cc1ccccc1)C(=O)N1CCC[C@H]1C(=O)N[C@@H](CC(=O)O)C(=O)N[C@@H](Cc1c[nH]c2ccccc12)C(=O)N[C@@H](C)C(=O)N[C@@H](CCCCN)C(=O)N[C@@H](C)C(=O)N[C@@H](C)C(=O)N[C@@H](Cc1ccc(O)cc1)C(=O)N[C@@H](CC(=O)O)C(=O)N[C@@H](CCCCN)C(=O)N[C@@H](C)C(=O)N[C@@H](C)C(=O)N[C@@H](CCC(=O)O)C(=O)N[C@@H](CCCCN)C(=O)N[C@@H](C)C(=O)N[C@@H](CCCCN)C(=O)N[C@@H](CCC(=O)O)C(=O)N[C@@H](C)C(=O)N[C@@H](C)C(=O)O", "test system": "cynomolgus monkey female, plasma", "conditions": "intravenous infusion, 75 mg/kg every other day, day 27", "endpoint": "clearance", "result": "0.167 mL/min/kg"}
{"SMILES": "O=P([O-])([O-])Oc1ccc(-c2cc(=S)ss2)cc1.[Na+].[Na+]", "test": "item: astaxanthin", "test system": "saline", "conditions": "12 h, 37 °C", "endpoint": "parent drug release", "result": "not detected"}
{"SMILES": "CCCCCCCCCCCCC(=O)O.O=C1CCCC2C3CCCN4CCCC(CN12)C34 (stereo not shown)", "test": "electrical conductivity", "test system": "water", "conditions": "303.15 K, critical micelle concentration", "endpoint": "standard entropy of micellization", "result": "101 J/(mol·K)"}
{"SMILES": "COC(=O)C[C@](O)(CCCC(C)(C)OC(C)=O)C(=O)O[C@@H]1C(OC)=C[C@]23CCCN2CCc2cc4c(cc2[C@H]13)OCO4", "test system": "CD1 mouse, lung", "conditions": "oral, 1 mg/kg, 8 h, below quantification limit 1.00 ng/mL", "endpoint": "tissue concentration", "result": "not detected"}
{"SMILES": "CC(C)(O)c1ccccc1CC[C@H](c1cccc(/C=C/c2ccc3ccc(Cl)cc3n2)c1)S(=O)(=O)CC1(CC(=O)O)CC1", "test system": "human liver cytosol", "conditions": "1 µM, 30 min, 1 mg/mL protein", "endpoint": "percent metabolized", "result": "32.4%"}
{"SMILES": "CC(COC(=O)c1ccccc1)OC(=O)C(N)Cc1ccccc1 (mixture of isomers)", "test system": "isotonic buffer", "conditions": "pH 7.4, 37 °C", "endpoint": "half-life", "result": "21.3 ± 4.42 h"}
{"SMILES": "[Cl-].[Cl-].[Ru+2].c1ccc(-c2ccccn2)nc1.c1ccc(-c2ccccn2)nc1.c1cnc2c(c1)ccc1cccnc12", "test system": "octanol/water", "conditions": "room temperature, chloride salt", "endpoint": "log P", "result": "-2.82 ± 0.1"}
{"SMILES": "N=C(N)NCCC[C@@H](NC(=O)[C@H](N)Cc1c[nH]c2ccccc12)C(=O)N[C@H](CCCCN)C(=O)N[C@H](Cc1c[nH]c2ccccc12)C(=O)N[C@H](CCCNC(=N)N)C(=O)N[C@H](CCCCN)C(=O)N[C@H](Cc1c[nH]c2ccccc12)C(=O)N[C@H](CCCNC(=N)N)C(=O)N[C@H](CCCCN)C(=O)N[C@H](Cc1c[nH]c2ccccc12)C(=O)N[C@H](CCCNC(=N)N)C(=O)N[C@H](CCCCN)C(N)=O", "test system": "mouse", "conditions": "intraperitoneal, 40 mg/kg single dose", "endpoint": "mortality", "result": "25%"}
{"SMILES": "CC(C)C1=C(OC(=O)C(C)(C)C)C(=O)C2=C(C=C[C@H]3C(C)(C)CCC[C@]23C)C1=O", "test system": "Artemia salina, artificial seawater", "conditions": "100 ppm, 24 h", "endpoint": "mortality", "result": "52.2%"}
{"SMILES": "C[C@H](NC(=O)[C@H](CC(=O)O)NC(=O)[C@H](C)NC(=O)[C@H](CCCNC(=N)N)NC(=O)[C@H](C)NC(=O)[C@H](CC(=O)O)NC(=O)[C@H](C)NC(=O)[C@H](CCCNC(=N)N)NC(=O)[C@H](Cc1ccccc1)NC(=O)[C@H](Cc1ccccc1)NC(=O)OCC1c2ccccc2-c2ccccc21)C(=O)NCC(=O)N[C@@H](CCCNC(=N)N)C(=O)N[C@@H](CCCCN)C(=O)N[C@@H](CCCCN)C(=O)N[C@@H](CCCNC(=N)N)C(=O)N[C@@H](CCCNC(=N)N)C(=O)N[C@@H](CCC(N)=O)C(=O)N[C@@H](CCCNC(=N)N)C(=O)N[C@@H](CCCNC(=N)N)C(=O)N[C@@H](CCCNC(=N)N)C(=O)N1CCC[C@H]1C(=O)N[C@@H](CCC(N)=O)C(N)=O", "test": "AFM", "test system": "water on mica", "conditions": "400 µM", "endpoint": "nanostructure length", "result": "150 ± 111 nm"}
{"SMILES": "COc1cc(NC(=O)C(=O)c2c(C)n(Cc3ccc(Cl)cc3)c3ccc(C)cc23)ccn1", "test system": "male cynomolgus monkey, plasma", "conditions": "intravenous, 1 mg/kg, mean", "endpoint": "Vss", "result": "4.52 L/kg"}
{"SMILES": "CSCC[C@@H]1NC(=O)[C@@H]2CSSC[C@H](NC(=O)[C@H](CO)NC(=O)[C@H](C)N)C(=O)N[C@@H](CCCNC(=N)N)C(=O)N[C@@H]([C@@H](C)O)C(=O)N3CCC[C@H]3C(=O)N[C@@H](CCCCN)C(=O)N[C@@H](CC(=O)O)C(=O)N[C@H]3CSSC[C@H](NC(=O)[C@H](CCCCN)NC(=O)[C@H](CCCNC(=N)N)NC(=O)[C@H](CC(N)=O)NC1=O)C(=O)N[C@@H](CCCCN)C(=O)N[C@H]1CSSC[C@H](NC(=O)[C@@H]4CCCN4C(=O)[C@H](CC(=O)O)NC(=O)[C@H](C)NC3=O)C(=O)N[C@@H](C)C(=O)N[C@@H](CCCCN)C(=O)N[C@@H](CCC(=O)O)C(=O)N[C@@H]([C@@H](C)O)C(=O)NCC(=O)N[C@@H](CSSC[C@@H](C(N)=O)NC(=O)[C@H](CCCNC(=N)N)NC(=O)[C@H](CC(N)=O)NC1=O)C(=O)N1CCC[C@H]1C(=O)N[C@@H](Cc1ccc(O)cc1)C(=O)NCC(=O)N[C@@H](CCCCN)C(=O)N2", "test system": "DA rat, pristane-induced arthritis, serum", "conditions": "subcutaneous, single 0.1 mg/kg at onset, end of 21-day trial", "endpoint": "albumin/globulin ratio", "result": 3.14}
{"SMILES": "CCCCCCCC(=O)NCCCC[C@H](NC(=O)[C@H](Cc1ccccc1)NC(=O)[C@@H](CCCNC(=N)N)NC(=O)[C@@H](N)Cc1ccc(O)cc1)C(N)=O", "test system": "male CD-1 mouse, plasma", "conditions": "intravenous, 3 mg/kg", "endpoint": "MRT", "result": "0.63 h"}
{"SMILES": "COc1ccc(NC(=O)Cn2c(=O)c3ccccc3n(CC(=O)Nc3cc([125I])c(OC)cc3OC)c2=O)cc1", "test system": "rat, heart", "conditions": "intravenous, 30 min", "endpoint": "tracer uptake", "result": "0.14 %ID/g"}
{"SMILES": "[2H]C([2H])([2H])C([2H])([2H])C([2H])([2H])OC(C(=O)OC1CCNCC1)(c1ccccc1)c1ccccc1", "test system": "healthy Japanese male subjects, plasma", "conditions": "oral, 12 mg once daily, day 16, fed, mean", "endpoint": "Cmax", "result": "136 ng/mL"}
{"SMILES": "C#Cc1c(F)ccc2cc(O)cc(-c3ncc4c(N5CC6CCC(C5)N6C(=O)OCCCCC)nc(OC[C@@]56CCCN5C[C@H](F)C6)nc4c3F)c12", "test system": "mouse liver microsomes", "conditions": "60 min, added: NADPH", "endpoint": "parent drug release", "result": "not detected"}
{"SMILES": "CSCC[C@H](NC(=O)CNC(=O)[C@H](CCCCN)NC(=O)[C@H](CC(C)C)NC(=O)[C@@H]1CCCN1C(=O)[C@H](CO)NC(=O)[C@H](Cc1c[nH]cn1)NC(=O)[C@H](Cc1c[nH]c2ccccc12)NC(=O)[C@H](CCCNC(=N)N)NC(=O)[C@H](CC(C)C)NC(=O)[C@H](CCCNC(=N)N)NC(=O)[C@H](Cc1c[nH]c2ccccc12)NC(=O)[C@H](CS)NC(=O)CCCCCNC(=O)CN1CCN(CC(=O)O)CCN(CC(=O)O)CCN(CC(=O)O)CC1)C(=O)O [copper-64 labelled]", "test": "radio-HPLC", "test system": "mouse serum", "conditions": "1 h, 37 °C", "endpoint": "intact tracer remaining", "result": "94.9%"}
{"SMILES": "[CH3][Ti+2][O]C(=O)c1ccc([S][Au][PH](c2ccccc2)(c2ccccc2)c2ccccc2)cc1.c1cc[cH-]c1.c1cc[cH-]c1", "test system": "C57BL/6 female mice", "conditions": "sc, 5 consecutive days", "endpoint": "lethal dose", "result": "6 mg/kg/day"}
{"SMILES": "CC[C@H](C)C(=O)N1CCC(NC(=O)Nc2ccc(OC(F)(F)F)c(F)c2)CC1", "test system": "healthy volunteers", "conditions": "oral, 24 mg single dose, 14 (unit not given)", "endpoint": "subjects with moderate TEAE", "result": "0%"}
{"SMILES": "Nc1ccc(-c2ccccc2)cc1OC(=O)NC1CCCCC1", "test system": "rat plasma", "endpoint": "log hydrolysis rate constant", "result": -2.11}
{"SMILES": "[3H]c1sc(C)nc1C=C(C)C1CC2C(CCCC(C)C(O)C(C)C(=O)C(C)(C)C(O)CC(=O)O1)N2CCO (stereo not shown)", "test": "LC-MS/MS", "test system": "CD2F1 mice tumour-bearing, heart", "conditions": "intravenous, 2.2 nmol/kg, 2 h", "endpoint": "tissue concentration", "result": "930 ± 130 ng/g"}
